# Published values collected from several papers.
# Each numbered part is a random draw from the data of one study; scales do not carry over between parts. Positions count from the first letter of the parent shown.

# Block 1 — technique: universal PBM; molecule type: double-stranded DNA, one strand shown; sample: in vitro; concentration: 600 nM; reading: higher = stronger binding
# Target: Sal-like protein 4, full length isoform A (SALL4, Homo sapiens, UniProt Q9UJQ4, residues 1-1053)
# UniProt Q9UJQ4, sequence (whole entry, looked up): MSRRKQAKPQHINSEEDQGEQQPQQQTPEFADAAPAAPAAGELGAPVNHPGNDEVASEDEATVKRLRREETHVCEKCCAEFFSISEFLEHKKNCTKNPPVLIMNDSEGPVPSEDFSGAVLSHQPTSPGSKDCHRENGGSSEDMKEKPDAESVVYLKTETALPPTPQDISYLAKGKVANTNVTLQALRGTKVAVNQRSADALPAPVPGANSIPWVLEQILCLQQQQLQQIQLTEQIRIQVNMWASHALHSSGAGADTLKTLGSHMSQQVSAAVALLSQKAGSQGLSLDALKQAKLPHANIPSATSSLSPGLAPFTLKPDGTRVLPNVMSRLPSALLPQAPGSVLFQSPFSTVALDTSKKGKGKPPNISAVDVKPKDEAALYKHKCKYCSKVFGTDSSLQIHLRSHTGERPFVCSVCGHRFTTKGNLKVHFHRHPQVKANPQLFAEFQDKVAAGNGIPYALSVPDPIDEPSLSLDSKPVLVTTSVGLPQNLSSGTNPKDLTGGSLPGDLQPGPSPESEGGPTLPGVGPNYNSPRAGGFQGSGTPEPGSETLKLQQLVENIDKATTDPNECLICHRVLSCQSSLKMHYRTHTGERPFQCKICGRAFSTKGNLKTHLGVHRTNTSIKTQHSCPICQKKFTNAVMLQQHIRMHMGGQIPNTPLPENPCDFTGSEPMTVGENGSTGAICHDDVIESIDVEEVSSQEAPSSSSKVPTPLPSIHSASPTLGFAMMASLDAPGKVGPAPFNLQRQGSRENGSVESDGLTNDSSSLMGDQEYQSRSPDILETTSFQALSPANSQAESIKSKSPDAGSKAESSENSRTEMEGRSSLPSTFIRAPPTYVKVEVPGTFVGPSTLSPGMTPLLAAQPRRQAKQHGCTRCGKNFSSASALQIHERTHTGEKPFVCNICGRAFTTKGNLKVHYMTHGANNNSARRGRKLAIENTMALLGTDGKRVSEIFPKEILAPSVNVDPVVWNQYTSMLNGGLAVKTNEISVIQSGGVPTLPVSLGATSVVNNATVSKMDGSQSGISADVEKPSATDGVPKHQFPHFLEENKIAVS
# Notes: 8-mer, flanks averaged, mean of replicates
Strand,E-score
CATCGTTA,0.0871
CCGTCCCC,-0.397
ACCTACGC,-0.227
GTATTTCA,0.276
AAATTCGT,0.265
CCTTCTAC,-0.0959
TCCGCGGA,-0.339
ATTGGTTG,0.109
CGGTCGAG,-0.246
AAAGACCA,-0.0469

# Block 2 — technique: RNA Bind-n-Seq; molecule type: RNA; sample: in vitro; concentration: 365 nM; baseline: no-protein control; reading: higher = stronger binding
# Target: RNA binding protein fox-1 homolog 2, RRM domain, GST-SBP tag (RBFOX2, Homo sapiens, UniProt O43251-10, residues 100-194)
# Notes: natural RNA segment, single round, ends assumed
# Constant ends, left off below: GGGAGUUCUACAGUCCGACGAUC … UGGAAUUCUCGGGUGCCAA
# Construct (chain): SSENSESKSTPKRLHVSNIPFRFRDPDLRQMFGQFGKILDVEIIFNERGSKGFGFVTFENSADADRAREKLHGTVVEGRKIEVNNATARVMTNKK
Strand,RBNS enrichment (R)
AGCAAGUACAACAAAGAAGCUCUUAGCCCCCCAAGACGCAAAUCCUUCAAGAAAUGGACCCCUCCUCGGUCACCUUUUAAUCUUGUUCAAGAAAUACUUUUCCAUGACCC,0.59
CUGACCGUGUGUUACUGCUUUGCCGACGGGGCCUCCCGGCCCUGAUGCGUGUACACUCUGCGGGCUGCACCGGGUGGCUCUGGUUGGGGGCGAAGCUGUGUUGACUGGGA,0.379
GACCACGCAAAGUGCUGGACACAUCAGUCAUCUCCAACUGGCUGAAAGGCUGAACCUCAGGGCUCCACCCACGUCAUGGCCACGCCCCCUCUAUUACAAGAGUCCGCCUU,0.287
AUGUUGCACUGGUGGCAAUUCAUCAUGGAGCAUAAUAAAAUUAAUUUGACCCAAAUAGAAUAAAAUAUGUGUUUCAUGUGUUUAUUGUUAAGAGAGUAAAAUAGGUUUAA,0.326
GGGUGAGGGUUUGUAAUACAAAGAAACACUUCCAUCACUUCUGCCCUUAACCCUUGCCUCUAUUACCUAAGCUUAGUAAGUAGUUUUCUUAAUAUUGUCCAAUGUUUGGU,0.607
ACAUUUCUAGAAAAAACUACUUUUGUACCAGUGUGAAUAAAGUUAGUGUGUUGUCUGUGCAGCUGCACCCAGACUCCUACGCAUUUCUGUCCGCUGUGCAUCUGGACUCC,1.06
AAGAUUAUAUUUGAGGAUUGUAGCAGUUUCUUUGUUUCAGAUUGUCAGCUGACUUAAAAUGUUUGUGACUUUCCUGUAAGGGCAGCCAGGGAUAAAAGUAUCCUUUGUUC,0.254
GGAGCCAUUUCUGUAGGUAACUGGACCAAGAAUGAGAAAAAUAAUGAAUUCUUAGCUCCCUGAUUACACCUGCCACCUUGGAAUCAAGGACUCACACUUCUGACCCUGCC,0.558

# Block 3 — target: CCNB1, cyclin fold, Cln2 fusion (human); technique: yeast growth competition, sequencing; sample: yeast; notes: weak parent motif; baseline: not given; reading: higher = stronger binding
# Starting sequence: CDC25A docking peptide (human); PPHRRRLLFACSP
Variant,normalised enrichment score
L8T,0.882
R5K,0.73
P1M,0.236
H3I,0.755
P13G,0.744
P1I,0.849

# Further values, each from its own experiment
Molecule,target,assay,test system,conditions,scale,quantity,result
"PhoQ, residues 284 288 289 292 302 303 SLKLQV","PhoP, residues 12 14 15 18 19 SYFRT (Escherichia coli, UniProt P23836)","Sort-seq, refers to: YFP reporter",E. coli,"PhoQ-PhoP variant library, together with: 10 µM Mg2+","baseline: high Mg2+ state, higher = stronger signaling",fold induction,1.18

# For quick reference, copied from above (block 2):
Strand,RBNS enrichment (R)
AUGUUGCACUGGUGGCAAUUCAUCAUGGAGCAUAAUAAAAUUAAUUUGACCCAAAUAGAAUAAAAUAUGUGUUUCAUGUGUUUAUUGUUAAGAGAGUAAAAUAGGUUUAA,0.326
GGGUGAGGGUUUGUAAUACAAAGAAACACUUCCAUCACUUCUGCCCUUAACCCUUGCCUCUAUUACCUAAGCUUAGUAAGUAGUUUUCUUAAUAUUGUCCAAUGUUUGGU,0.607
